Measured values gathered from unrelated publications.
“And” joins repeats or separate records; there may be more than shown. ± gives the spread as reported.
Sequence of UniProt P35821 (whole entry, looked up): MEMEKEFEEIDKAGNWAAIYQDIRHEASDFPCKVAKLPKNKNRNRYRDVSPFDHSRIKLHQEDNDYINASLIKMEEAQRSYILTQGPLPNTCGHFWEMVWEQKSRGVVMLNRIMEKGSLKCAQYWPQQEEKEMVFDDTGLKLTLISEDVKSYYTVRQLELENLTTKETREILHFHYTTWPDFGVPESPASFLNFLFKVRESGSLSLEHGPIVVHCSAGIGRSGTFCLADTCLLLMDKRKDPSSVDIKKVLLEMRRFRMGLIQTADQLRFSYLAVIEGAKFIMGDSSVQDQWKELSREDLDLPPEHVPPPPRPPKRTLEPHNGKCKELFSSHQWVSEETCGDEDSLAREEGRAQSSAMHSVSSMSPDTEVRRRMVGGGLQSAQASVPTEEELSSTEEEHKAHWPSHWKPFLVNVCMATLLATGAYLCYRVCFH
Sequence of UniProt P29597 (whole entry, looked up): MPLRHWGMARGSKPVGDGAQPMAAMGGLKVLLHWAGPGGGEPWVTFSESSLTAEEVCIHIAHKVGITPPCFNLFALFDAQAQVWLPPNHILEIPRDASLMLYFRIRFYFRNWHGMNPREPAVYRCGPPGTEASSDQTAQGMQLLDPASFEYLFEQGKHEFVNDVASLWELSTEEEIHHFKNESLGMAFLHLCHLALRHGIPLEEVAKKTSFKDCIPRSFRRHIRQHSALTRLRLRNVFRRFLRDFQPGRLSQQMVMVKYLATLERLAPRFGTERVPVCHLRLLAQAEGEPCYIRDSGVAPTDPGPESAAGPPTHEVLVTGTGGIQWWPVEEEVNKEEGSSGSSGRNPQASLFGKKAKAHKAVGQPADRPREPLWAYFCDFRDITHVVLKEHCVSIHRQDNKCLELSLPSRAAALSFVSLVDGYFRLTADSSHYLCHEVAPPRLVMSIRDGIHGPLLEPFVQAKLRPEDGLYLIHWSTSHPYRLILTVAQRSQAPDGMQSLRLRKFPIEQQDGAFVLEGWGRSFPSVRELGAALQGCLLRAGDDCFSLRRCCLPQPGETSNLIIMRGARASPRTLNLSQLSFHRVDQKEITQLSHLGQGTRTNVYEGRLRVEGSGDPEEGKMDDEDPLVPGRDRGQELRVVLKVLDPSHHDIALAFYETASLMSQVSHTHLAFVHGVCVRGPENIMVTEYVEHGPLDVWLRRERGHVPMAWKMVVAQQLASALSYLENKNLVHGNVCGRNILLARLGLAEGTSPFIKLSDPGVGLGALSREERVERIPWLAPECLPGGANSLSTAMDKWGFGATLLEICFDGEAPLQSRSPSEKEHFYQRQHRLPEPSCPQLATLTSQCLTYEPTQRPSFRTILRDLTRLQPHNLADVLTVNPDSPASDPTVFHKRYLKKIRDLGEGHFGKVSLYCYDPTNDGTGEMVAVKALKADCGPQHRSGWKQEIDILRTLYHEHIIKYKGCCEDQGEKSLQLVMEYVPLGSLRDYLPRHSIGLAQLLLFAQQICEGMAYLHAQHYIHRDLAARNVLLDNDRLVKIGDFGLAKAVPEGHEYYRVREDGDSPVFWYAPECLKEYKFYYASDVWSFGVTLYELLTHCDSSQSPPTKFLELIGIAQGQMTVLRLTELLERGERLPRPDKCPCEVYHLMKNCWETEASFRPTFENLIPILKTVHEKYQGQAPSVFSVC

Structure (SMILES)	target or system	test	system	setting	how to read	quantity	result
COCCNCCOc1cc(C)cc(C(C)C)c1	–	–	zebrafish larvae, 7 dpf	10 µM, minute 6	–	larval motion	15.2 ± 1.5 pixels/frame
C=CC(=O)N1[C@H](c2ccc3c(c2)OCO3)c2[nH]c3ccccc3c2C[C@@H]1C(=O)N1CCN(C)CC1	human cyclin E1 N112C-3xFLAG:CDK2	co-IP with TMT proteomics, item: CDKN1A	–	concentration not given, P38936	reference: wild type DMSO	relative co-enrichment	132%
CC(C)c1ccc(N(C)c2ccc3c(c2)OCC[C@H]3CNc2cnccc2C(=O)O)cc1	JIMT-1	cell viability, CellTiter-Glo	–	7 days	–	IC50	61.9 nM
CCN(C(=O)c1cc(F)ccc1Oc1nncnc1N1CCC2(C1)CN([C@H](CCCN(C)CCOC)C(C)C)C2)C(C)C	MT-3	cell growth or viability	–	72 h	–	GI50	> 10000 nM
COC1CN([C@H]2CC[C@H]([C@@]3(C)Oc4c(Cl)cc(C(=O)NCc5c(SC)cc(C)[nH]c5=O)c(C)c4O3)CC2)C1	–	RNA-seq, item: MAK mouse homolog	mouse, HT-1376 xenograft, whole blood	dose not given	reference: vehicle	log2 fold change	1.59
CC1(C)C[C@@H](Nc2cccc(-c3sc(C(=O)O)c(OCC(=O)O)c3Cl)c2)CCN1S(=O)(=O)Cc1cccc(NC(=O)CN2CCC(c3ccc4c(c3)oc(=O)n4C3CCC(=O)NC3=O)CC2)c1 (stereo partly shown)	Tyrosine-protein phosphatase non-receptor type 1 (Mus musculus, UniProt P35821)	degrader, Western blot	B16-F10	0.001 µM	–	remaining protein	94.1% and 104%
CC(=O)[O-].O.[Cu+2].[O-]c1ccc(Br)cc1C=NCCN1CCOCC1	–	DPPH radical scavenging	–	80 µM	–	inhibition	31.9%
CCCC[C@H](NC(=O)COCCOCCNC(=O)CN1CCN(CC(=O)O)CCN(CC(=O)O)CC1)C(=O)N[C@H]1CC(=O)NCCCC[C@@H](C(N)=O)NC(=O)[C@H](Cc2c[nH]c3ccccc23)NC(=O)[C@H](CCCNC(=N)N)NC(=O)[C@@H](Cc2ccccc2)NC(=O)[C@H](Cc2c[nH]cn2)NC1=O [technetium-99m labelled]	–	–	C57 mouse, brain	intravenous, 0.037 MBq, 0.5 h	–	tissue uptake	0.16 ± 0.05 %ID/g
Cc1cc(NC(=O)CCN2CCCCC2)ccc1Br	–	–	zebrafish larvae, 7 dpf	10 µM, minute 6	–	larval motion	16.5 ± 1.6 pixels/frame
Cc1cc(=O)c2c(O)c3c(O[C@@H]4O[C@H](CO)[C@@H](O)[C@H](O)[C@H]4O)cc(O)cc3cc2o1	HK-2 co-cultured with HepaRG	MTT	–	266.67 µM, 24 h	reference: untreated control	cell viability	74.3 ± 11.9%
c1ccc(-c2n[nH]cc2-c2ccnc3ccccc23)nc1	RAD53 (Candida albicans)	kinase binding, MIB/MS competition	Candida albicans lysate	10 µM	reference: DMSO	log2 fold change	1.78
Nc1ncc(-c2cc(-c3cnn(CC(F)(F)F)c3)ncc2F)nc1C(=O)NC1CNCC(F)C1 (stereo not shown)	ABL1-phosphorylated	KINOMEscan competition binding	–	1 µM	reference: DMSO control	remaining binding	83%
C=C(NC(=O)c1csc(-c2nc3c(cc2O)-c2nc(cs2)C(=O)NC(C(C)O)C(=O)NC(=C(C)OC)c2nc(cs2)C(=O)NC2c4nc(cs4)C(=O)NC(COC(=O)c4c5c6c(cccc6n4O)COC(=O)C(OC4CC(C)(O)C(N(C)C)C(C)O4)C2OC5)c2nc-3cs2)n1)C(N)=O (stereo not shown)	–	–	female cynomolgus monkey, plasma	intravenous, 3 mg/kg, single dose, infusion	–	AUC(0-t)	28000 ng·h/mL
Cn1ncc2cc(-c3cncc(Cl)c3N3CCC4(CCNC4=O)CC3)ccc21	LS174T	gene expression, microarray, item: EMP1 mRNA	–	concentration not given, 4 h	reference: untreated cells	log2 fold change	2.92
CC(C)(C)NCC(SS(=O)(=O)O)c1ccccc1 (stereo not shown)	Schistosoma mansoni	–	infected Swiss Webster mice	400 mg/kg single, dosed day 42, perfusion day 56	–	mean male worms recovered	7.25 worms per mouse
CN1CCCNC(=O)c2cccc(c2)C(=O)NCCCN(C)CCCNc2cccc3c2C(=O)c2cccc(c2C3=O)NCCC1	SAS	RNA-Seq, item: VPS50 mRNA	–	1 µM, 6 h	reference: untreated cells	log2 fold change	-1.61
Cc1ccc(NC(=O)CCN2CCCCCC2)cc1C	–	–	zebrafish larvae, 7 dpf	10 µM, minute 2	–	larval motion	11.2 ± 1.3 pixels/frame
CN(C)C(=O)c1ccnc(N2Cc3cn(Cc4ccc(F)cc4F)nc3C2)n1	–	–	mouse, hippocampal slice, Schaffer collaterals	dose not given, interstimulus interval 1000	reference: second over first response	paired-pulse ratio	1.24 and 1.06 and 1.07 and 0.989 and 1.14 and 0.872 and 1.21
CCN(CC)CC(=O)Nc1cccc(-n2cc(-c3ccc4ccc(-c5cn(-c6cccc(NC(=O)CN(CC)CC)c6)nn5)cc4c3)nn2)c1	RCC4	PCR angiogenesis array, item: ITGB3	–	5 x IC50, 2 h, normoxia	reference: untreated	fold regulation	-1.04
C[C@@H](O)[C@@H]1NC(=O)[C@H](CCCCN)NC(=O)[C@@H](Cc2c[nH]c3ccccc23)NC(=O)[C@H](Cc2ccc(O)cc2)NC(=O)[C@@H](NC(=O)[C@@H](Cc2ccccc2)NC(=O)CN2CCN(CC(=O)O)CCN(CC(=O)O)CCN(CC(=O)O)CC2)CSSC[C@@H](C(=O)N[C@H](CO)[C@@H](C)O)NC1=O [gallium-67 labelled]	–	gamma counting	ICR mice, male, spleen	iv, 11 kBq/mouse, 3 h	–	tissue uptake	1.69 ± 0.23 %ID/g
CC(C)C[C@@H](NC(=O)[C@@H](CC(C)C)NC(=O)[C@@H](CC(=O)O)NC(=O)[C@@H](CC(C)C)NC(=O)[C@@H](CC(C)C)NC(=O)[C@@H](CC(C)C)NC(=O)[C@H](NC(=O)[C@@H](CC(=O)O)NC(=O)[C@H](NC(=O)[C@H]1CCCN1C(=O)[C@@H](Cc1ccccc1)NC(=O)[C@@H](CC(C)C)NC(=O)[C@@H](CC(C)C)NC(=O)[C@@H](CC(=O)O)NC(=O)[C@@H](CC(C)C)NC(=O)[C@@H](Cc1ccc(O)cc1)NC(=O)[C@@H](C)NC(=O)[C@@H](CCCNC(=N)N)NC(=O)[C@@H](Cc1c[nH]c2ccccc12)NC(=O)[C@H]1CCCN1C(=O)[C@@H](CC(N)=O)NC(=O)[C@@H](CCC(N)=O)NC(=O)[C@@H](CC(=O)O)NC(=O)[C@@H](CC(=O)O)NC(=O)[C@@H](CSC1CC(=O)N(CCNC(=O)CN2CCN(CC(=O)O)CCN(CC(=O)O)CC2)C1=O)NC(=O)[C@@H](C)N)[C@H](C)O)[C@H](C)O)C(=O)N[C@H](Cc1c[nH]c2ccccc12)C(=O)O (stereo partly shown) [fluorine-18 labelled]	–	–	male nude mice, LNCaP xenograft, tumor	intravenous, 4 h	–	tissue uptake	4.41 %ID/g
C=CC(=O)Nc1cccc(Cn2ncc3cnc(Nc4cnn(CCOC)c4)nc32)c1	human ERK2	KINOMEscan	–	100 nM	reference: control	binding	86%
CCCC[C@H](NC(=O)CCCCCCCNC(=O)CN1CCN(CC(=O)O)CCN(CC(=O)O)CC1)C(=O)N[C@H]1CC(=O)NCCCC[C@@H](C(N)=O)NC(=O)[C@H](Cc2c[nH]c3ccccc23)NC(=O)[C@H](CCCNC(=N)N)NC(=O)[C@@H](Cc2ccccc2)NC(=O)[C@H](Cc2c[nH]cn2)NC1=O [technetium-99m labelled]	–	–	C57 mouse, tumor	intravenous, 0.037 MBq, 2 h	–	tissue uptake	19.4 ± 2.95 %ID/g
CNS(=O)(=O)Nc1nccc(Cc2c(C)c3ccc(Oc4ncccc4F)cc3oc2=O)c1F	MKN-1	cell viability	–	7 days	–	IC50	> 1000 nM
Cc1nn(-c2cccc(N)c2)c(=O)c2cnc(Nc3ccc(N4CCNCC4)cc3)nc12	TYK2 (Homo sapiens, UniProt P29597)	kinase activity, inhibitor, SelectScreen kinase profiling	–	–	–	IC50	> 10000 nM
Cc1ncsc1-c1ccc(C(C)NC(=O)C2CC(O)CN2C(=O)C(NC(=O)CCCCCCCCCCN2CCCC(Nc3ncc(Cl)c(Nc4ccccc4S(=O)(=O)C(C)C)n3)C2)C(C)(C)C)cc1 (stereo not shown)	22Rv1	RNA-seq, item: XYLT2 mRNA	–	concentration not given	reference: DMSO	log2 fold change	-1.08
CN(C)CCOCCOc1ccc(Cl)c(Cl)c1	–	–	zebrafish larvae, 7 dpf	10 µM, minute 2	–	larval motion	6.7 ± 1.9 pixels/frame
C=C1CC[C@H](OCCCNC(=O)CCOCCOCCOCCOCCOCCOCCOCCOCCOCCOCCOCCOCCOCCOCCOCCOCCOCCOCCOCCOCCOCCOCCOCCOCCOCCOCCOCCOCCOCCOCCOCCOCCOCCOCCOCCOCCNC(=O)CCN2C(=O)CC(SC[C@H](NC(=O)[C@H](Cc3ccccc3)NC(=O)[C@H](CC(N)=O)NC(=O)[C@H](Cc3c[nH]cn3)NC(=O)[C@@H](NC(=O)[C@H](CC(=O)O)NC(=O)[C@H](CCC(N)=O)NC(=O)[C@H](CC(C)C)NC(=O)[C@H](CCCCN)NC(=O)[C@H](CCCCN)NC(=O)[C@H](CCCNC(=N)N)NC(=O)[C@H](CC(C)C)NC(=O)[C@H](Cc3c[nH]c4ccccc34)NC(=O)[C@H](CCC(=O)O)NC(=O)[C@@H](NC(=O)[C@H](CCCNC(=N)N)NC(=O)[C@H](CCC(=O)O)NC(=O)[C@H](CCSC)NC(=O)[C@H](CO)NC(=O)[C@H](CC(N)=O)NC(=O)[C@H](CC(C)C)NC(=O)[C@H](Cc3c[nH]cn3)NC(=O)[C@H](CCCCN)NC(=O)CNC(=O)[C@H](CC(C)C)NC(=O)[C@H](CC(N)=O)NC(=O)[C@H](Cc3c[nH]cn3)NC(=O)[C@H](CCSC)NC(=O)[C@H](CC(C)C)NC(=O)[C@H](CCC(N)=O)NC(=O)[C@@H](NC(=O)[C@H](CCC(=O)O)NC(=O)[C@H](CO)NC(=O)[C@@H](NC(=O)[C@@H](N)CO)C(C)C)[C@@H](C)CC)C(C)C)C(C)C)C(=O)O)C2=O)C/C1=C/C=C1\CCC[C@]2(C)[C@@H]([C@H](C)CCCC(C)(C)O)CC[C@@H]12 (stereo partly shown)	–	–	male Sprague-Dawley rat, plasma	subcutaneous, 100 µg/kg, single dose	–	Cmax	43.7 ng/mL

A few entries again:
Structure (SMILES)	target or system	test	system	setting	how to read	quantity	result
Cc1nn(-c2cccc(N)c2)c(=O)c2cnc(Nc3ccc(N4CCNCC4)cc3)nc12	TYK2 (Homo sapiens, UniProt P29597)	kinase activity, inhibitor, SelectScreen kinase profiling	–	–	–	IC50	> 10000 nM
CCN(CC)CC(=O)Nc1cccc(-n2cc(-c3ccc4ccc(-c5cn(-c6cccc(NC(=O)CN(CC)CC)c6)nn5)cc4c3)nn2)c1	RCC4	PCR angiogenesis array, item: ITGB3	–	5 x IC50, 2 h, normoxia	reference: untreated	fold regulation	-1.04
CC(C)c1ccc(N(C)c2ccc3c(c2)OCC[C@H]3CNc2cnccc2C(=O)O)cc1	JIMT-1	cell viability, CellTiter-Glo	–	7 days	–	IC50	61.9 nM
C=CC(=O)N1[C@H](c2ccc3c(c2)OCO3)c2[nH]c3ccccc3c2C[C@@H]1C(=O)N1CCN(C)CC1	human cyclin E1 N112C-3xFLAG:CDK2	co-IP with TMT proteomics, item: CDKN1A	–	concentration not given, P38936	reference: wild type DMSO	relative co-enrichment	132%
